{"data": "Results pooled from the literature", "note": "Compare with care: the assays were run in different laboratories. Several values in a cell are separate wells, animals, samples, runs or records."}
{"SMILES": "O=C1[O][Pt]2([NH][C@@H]3CCCC[C@H]3[NH]2)[O]C1=O", "system": "NSG mouse HCT-116 xenograft", "setting": "intraperitoneal, 7.5 mg/kg", "endpoint": "tumour weight", "result": "0.638 g and 0.675 g and 0.58 g and 0.868 g and 1.01 g"}
{"SMILES": "N.N.[Cl][Pt][Cl]", "system": "nude mouse NCI-H460 xenograft", "setting": "3 mg/kg", "endpoint": "tumour growth inhibition", "result": "~80%"}
{"SMILES": "CC1(C)C(=CC=CC=CC=CC2=[N+](CCC(=O)NCCCC[C@H](NC(=O)CN3CCN(CC(=O)O)CCN(CC(=O)O)CCN(CC(=O)O)CC3)C(=O)NCC(=O)NCCCC[C@@H]3NC(=O)[C@@H](Cc4ccc(O)cc4)NC(=O)[C@H](CC(=O)O)NC(=O)CNC(=O)[C@H](CCCNC(=N)N)NC3=O)c3ccc4ccccc4c3C2(C)C)N(CCC(=O)O)c2ccc3ccccc3c21 (single isomer, unassigned)", "test": "NIR fluorescence imaging", "system": "nude mouse integrin αvβ3-positive tumour", "setting": "intravenous, dose not given", "endpoint": "tumour visualisation time", "result": "≤ 6 h"}
{"SMILES": "C=CC(=O)N1C[C@@H](n2nc(C#Cc3c(F)cc4c(ncn4C4CC4)c3F)c(C(N)=O)c2NC)C[C@@H]1COC", "system": "mouse, CCLP-1-FP-N550K xenograft", "setting": "15 mg/kg daily, 28 days", "endpoint": "tumour growth inhibition", "result": "84%"}
{"SMILES": "Cc1n[nH]cc1-c1cc2nc([C@@H]3CC4CCN3CC4)[nH]c(=O)c2s1", "system": "mouse COLO 205 xenograft", "setting": "oral, 20 mg/kg twice daily, 7 days after dosing end, 28 days", "endpoint": "tumour growth inhibition", "result": "41.6%"}
{"SMILES": "C=CC(=O)N[C@H]1C=C(C)c2c(-c3cnc4ccccc4c3)c3c(N)ncnc3n2C1", "system": "mouse NCI-H2073 xenograft", "setting": "oral, 100 mg/kg once daily, day 14", "endpoint": "tumour growth inhibition", "result": "92%"}
{"SMILES": "C[C@]12CC[C@H](O)CC1=CC[C@@H]1[C@@H]2CC[C@]2(C)C(n3cnc4ccccc43)=CC[C@@H]12.Cl", "system": "mouse CWR22Rv1 xenograft", "setting": "oral, 96 mg/kg once daily, 16 days, 5 days per week", "endpoint": "tumour growth inhibition", "result": "148%"}
{"SMILES": "CC[C@H](C)[C@@H]1NC(=O)[C@H](CCCNC(=N)N)NC(=O)C[C@@H](c2cccc3ccccc23)NC(=O)[C@@H]2CSSC[C@H](NC(=O)C[C@@H](c3cccc4ccccc34)NC(=O)[C@H](CCCNC(=N)N)NC(=O)[C@@H]3CCCN3C(=O)[C@@H]3CCCN3C1=O)C(=O)N[C@@H](Cc1ccccc1)C(=O)N1CCC[C@H]1C(=O)N[C@@H](CC(=O)O)C(=O)N[C@@H](CC(=O)O)C(=O)N[C@@H](Cc1ccccc1)C(=O)N2", "system": "Calu-3 NSCLC xenograft, athymic Foxn1 nude mouse", "setting": "oral, 50 mg/kg", "scale": "reference: vehicle", "endpoint": "tumour volume difference onset", "result": "24 days"}
{"SMILES": "C[C@]12CC[C@H](O)C[C@H]1CC[C@@H]1[C@@H]2CC[C@]2(C)[C@@H](c3ccc(=O)oc3)CC[C@]12O", "system": "female nude mouse LCC2 xenograft", "setting": "0.5 mg/kg, day 1, tamoxifen-resistant", "endpoint": "tumour volume", "result": "28.2 mm3 and 18.9 mm3 and 29.8 mm3 and 31.8 mm3 and 26.1 mm3 and 16.1 mm3 and 17.2 mm3"}
{"SMILES": "COc1cc2c3c(n(CCCNCCO)c(=O)c2cc1OC)-c1cc2c(cc1C3=O)OCO2", "test": "bioluminescence imaging", "system": "GL261-Luc, mouse orthotopic glioblastoma", "setting": "intravenous, 20 mg/kg, day 21", "scale": "reference: control", "endpoint": "tumour growth reduction", "result": "57.5%"}
{"note": "A few entries again:"}
{"SMILES": "CC1(C)C(=CC=CC=CC=CC2=[N+](CCC(=O)NCCCC[C@H](NC(=O)CN3CCN(CC(=O)O)CCN(CC(=O)O)CCN(CC(=O)O)CC3)C(=O)NCC(=O)NCCCC[C@@H]3NC(=O)[C@@H](Cc4ccc(O)cc4)NC(=O)[C@H](CC(=O)O)NC(=O)CNC(=O)[C@H](CCCNC(=N)N)NC3=O)c3ccc4ccccc4c3C2(C)C)N(CCC(=O)O)c2ccc3ccccc3c21 (single isomer, unassigned)", "test": "NIR fluorescence imaging", "system": "nude mouse integrin αvβ3-positive tumour", "setting": "intravenous, dose not given", "endpoint": "tumour visualisation time", "result": "≤ 6 h"}
